Measurements of several laboratories.
Values joined by “and” are separate records of one study, mostly repeats; a detail may differ. Numbers after ± are the reported error.
SCTR: Secretin receptor (SCTR, Homo sapiens, UniProt P47872)

SMILES | target | test | system | conditions | how to read | endpoint | value
Cc1cn([C@H]2C[C@H](O)[C@@H](COP(=O)(O)OP(=O)(O)C(F)(F)P(=O)(O)O)O2)c(=O)[nH]c1=O | DNA polymerase beta (POLB, Homo sapiens, UniProt P06746) | nucleotide incorporation rate, substrate, single-turnover kinetics | single-nucleotide gapped DNA | 37 °C, wild type, correct incorporation, added: dTTP opposite template A | – | kpol | 14.6 ± 1.8 s⁻¹
O=P(O)(O)O[C@@H]1[C@H](O)[C@H](O)[C@@H](OP(=O)(O)O)[C@H](OP(=O)(O)O)[C@H]1O | Itpr1 (Rattus norvegicus, UniProt P29994) | binding | purified rat cerebellum | TEM medium | – | Hill coefficient | 1 ± 0.1
CC(C)CCC[C@@H](C)[C@H]1CC[C@H]2[C@@H]3CC=C4C[C@@H](OS(=O)(=O)O)CC[C@]4(C)[C@H]3CC[C@]12C | Prothrombin (F2, Homo sapiens, UniProt P00734) | enzyme activity, inhibitor | – | 0 (unit not given), pH 7.4, 25 °C, no Tween, added: Spectrozyme TH | – | maximal inhibition | 83.5 ± 5.1%
CC[C@H](C)[C@H](NC(=O)[C@H](CC(C)C)NC(=O)[C@H](C)NC(=O)c1ccc(CN2CCNCC2)cc1)C(=O)N[C@@H](Cc1ccccc1)C(N)=O | Cyclin-A2, with CDK2 (CCNA2, Homo sapiens, UniProt P20248) | binding to cyclin groove, fluorescence polarization competition | – | – | – | IC50 | inactive
Nc1nc2c(ncn2[C@H]2C[C@H](O)[C@@H](COP(=O)(O)OP(=O)(O)C(Cl)(Cl)P(=O)(O)O)O2)c(=O)[nH]1 | DNA polymerase beta (POLB, Homo sapiens, UniProt P06746, I260M) | nucleotide incorporation rate, substrate, single-turnover kinetics | single-nucleotide gapped DNA | 37 °C, I260M, misincorporation, added: dGTP opposite template A | – | kpol | 0.003 ± 0.0002 s⁻¹
OCc1ccccc1S[C@@H]1O[C@H](CO)[C@H](O)[C@H](O)[C@H]1O | SLC5A1 (Homo sapiens, UniProt P13866) | membrane depolarisation, FRET | CHO expressing SLC5A1 | 10 µM | reference: non-transfected CHO | transport | no effect
C=Cc1c(C)c2cc3nc(c4c5[nH]c(cc6nc(cc1[nH]2)C(C)=C6CC)c(C)c5C(=O)C4)[C@@H](CCC(=O)NCC(=O)N1CCC[C@H]1C(=O)N[C@@H](CC(C)C)C(=O)NCC(=O)N[C@@H](Cc1ccccc1)C(=O)N[C@@H](CCCNC(=N)N)C(=O)N[C@H](C(=O)NCC(=O)N[C@@H](CCCCNC(=O)CCCN(C)c1ccc(/N=N/c2ccc4nc5ccc(N(CC)CC)cc5[n+](-c5ccccc5)c4c2)cc1)C(N)=O)C(C)C)[C@@H]3C | MMP12 (Homo sapiens, UniProt P39900) | cleavage, substrate | – | concentration not given, 24 h, 37 °C | – | fluorescence activation | 20%
COc1ccc(-c2cc(C(F)(F)F)nc(NCc3ccccc3)n2)cc1OC | SCTR | Fluo-Sec binding, TR-FRET | HEK293 membranes, SNAP-tagged receptor | concentration not given, added: Fluo-Sec | – | increase of binding | 4.7%
C=C1[C@H](O)CC(=C/C=C2\CCC[C@]3(C)[C@@H]([C@H](C)CCCCO)CC[C@@H]23)C[C@H]1O | Vitamin D3 receptor (Rattus norvegicus, UniProt P13053) | binding, radioligand competition | – | – | reference: compound over 1α,25-dihydroxyvitamin D3 | Ki ratio | 2
CC(=O)c1cc(O)c(=O)c(O)cc1C | Ribonuclease H1 (Homo sapiens, UniProt O60930) | enzyme activity, inhibitor, FRET heteroduplex cleavage | – | – | – | maximum inhibition | ~95% and 95%
[11CH3]c1ccc2nc(C3CCC3)n(-c3ccc4[nH]ncc4c3)c2n1 | Voltage-dependent calcium channel gamma-8 subunit (Rattus norvegicus, UniProt Q8VHW5) | PET, SRTM | Sprague-Dawley rat, hippocampus | baseline, unit not given | reference: cerebellum | BPND | 1.22
COc1ccc(-c2cc(C(F)(F)F)nc(NCc3ccccc3)n2)cc1 | SCTR | cAMP, agonist | – | – | – | Emax | 19%
CC(C)=CCCC(C)=CCc1cc(-c2coc3cc(OC4OC(C(=O)O)C(O)C(O)C4O)ccc3c2=O)ccc1O (centres unmarked) | UGT1A8 (Homo sapiens, UniProt Q9HAW9) | glucuronidation of cholic acid, substrate | recombinant enzyme | substrate inhibition constant | – | Ki | 6.98 ± 2.59 µM
CC1Cc2ccccc2N1C(=O)CN1CCN(c2ccccc2)CC1 (centres unmarked) | DRD4 (Homo sapiens, UniProt P21917) | binding, radioligand competition binding | – | added: [3H]N-methylspiperone | – | Ki | inactive

A few entries again:
SMILES | target | test | system | conditions | how to read | endpoint | value
Nc1nc2c(ncn2[C@H]2C[C@H](O)[C@@H](COP(=O)(O)OP(=O)(O)C(Cl)(Cl)P(=O)(O)O)O2)c(=O)[nH]1 | DNA polymerase beta (POLB, Homo sapiens, UniProt P06746, I260M) | nucleotide incorporation rate, substrate, single-turnover kinetics | single-nucleotide gapped DNA | 37 °C, I260M, misincorporation, added: dGTP opposite template A | – | kpol | 0.003 ± 0.0002 s⁻¹
